Measurements of several laboratories.
Protocols differ between the studies behind these lines.
Cell line: HeLa

`COc1cc([C@@H]2c3cc4c(cc3[C@@H](O[C@@H]3O[C@@H]5CO[C@@H](C)O[C@H]5[C@H](O)[C@H]3O)[C@H]3COC(=O)[C@H]23)OCO4)cc(OC)c1O` has an IC50 of 12.5 µM (cell growth or viability; 24 h).
`CC(=NN=C(N)[S-])C(C)=NN=C(N)[S-].N.N.O=[N+]([O-])[O-].[Co+3]` gave an IC50 of over 500 µM (cell growth or viability, MTT).
The IC50 of `O=C1c2ccc(O)cc2O[C@H](c2ccc(O)c(O)c2)[C@H]1O` is reported as over 400 µM (cell growth or viability, MTT; 72 h).
With `CC(=NNC(N)=S)C(C)=NNC(N)=S` the IC50 was over 20 µM (cell growth or viability, MTT).
`O=C(Cn1cc(COc2ncnc3[nH]cnc23)nn1)NCc1ccc(O)cc1` has an IC50 of 6.02 µM (cell growth or viability, MTT).
`C=C1C(=O)O[C@@H]2/C=C(\C)CC/C=C(/C(=O)OC)[C@H](OC(C)=O)[C@@H](OC(=O)[C@]3(C)O[C@@H]3C)[C@@H]12` has an IC50 of 12.7 µM (cell growth or viability; 24 h).
`CCC(O)CC(=O)O[C@@H]1C[C@@H]2[C@@]3(C)CCC[C@](C)(CC)[C@@H]3CC[C@@]2(C)[C@@H]2C[C@@H](O)C3=C(C(=O)O[C@@H]3C)[C@@]12C` (stereo partly shown) has an IC50 of at most 25 µM (cell growth or viability, CCK-8; 24 h).
`CO[C@@]12[C@H](COC(N)=O)C3=C(C(=O)C(C)=C(N)C3=O)N1C[C@@H]1N[C@@H]12` has an IC50 of 2.41 µM (cell growth or viability; 24 h).
The IC50 of `CC(C=NN=C(N)[S-])=NN=C(N)[S-].O=[N+]([O-])[O-].[Co+3].c1c[nH]cn1.c1c[nH]cn1` is reported as about 28 µM (cell growth or viability, MTT).
`O=C1/C(=C/c2ccc(O)c(O)c2)Oc2cc(O)ccc21` gave an IC50 of 78.8 µM (cell growth or viability, MTT; 72 h).
The IC50 of `Cc1cncc(NC(=O)Cn2cc(COc3ncnc4[nH]cnc34)nn2)c1` is reported as 7.1 µM (cell growth or viability, MTT).
`O=C(/C=C/c1ccc(O)c(O)c1)c1ccc(O)cc1O` has an IC50 of 8.66 µM (cell growth or viability, MTT; 72 h).
For `O=c1[nH]cc(F)c(=O)[nH]1`, the IC50 was 0.54 µM (cell growth or viability; 96 h).
The IC50 of `C=C1C(=O)O[C@H]2[C@H]1CC/C(C)=C/CC[C@@]1(C)O[C@@H]21` is reported as 16.6 µM (cell growth or viability; 48 h).
The IC50 of `O=C1NCCc2c(OCCCCN3CCCCC3)cccc21` is reported as 64 µM (H1R promoter reporter gene; p65 construct, region B1 only, pretreatment 1 h, with: PMA 100 nM for 10 h).
The IC50 of `C=C1C(=O)O[C@H]2[C@H]1[C@H](OC(=O)[C@@]1(C)O[C@H]1C)[C@@H](OC(C)=O)/C(C(=O)OC)=C\CC[C@@]1(C)O[C@H]21` is reported as 13.6 µM (cell growth or viability; 24 h).
For `COc1cc2c(cc1O)CC[C@@H]1[C@@H]2CC[C@]2(C)[C@@H](O)CC[C@@H]12`, the IC50 was 0.993 µM (cell growth or viability, MTT; 48 h).
`CC(=O)O[C@H]1C(=O)[C@@]2(C)[C@H]([C@H](OC(=O)c3ccccc3)[C@]3(O)C[C@H](OC(=O)[C@H](O)[C@@H](NC(=O)c4ccccc4)c4ccccc4)C(C)=C1C3(C)C)[C@]1(OC(C)=O)CO[C@@H]1C[C@@H]2O` has an IC50 of 0.055 µM (cell growth or viability; 24 h).
The IC50 of `COc1cccc(NC(=O)Cn2cc(COc3ncnc4[nH]cnc34)nn2)c1` is reported as over 100 µM (cell growth or viability, MTT).

Repeated from above:
`CC(=NN=C(N)[S-])C(C)=NN=C(N)[S-].N.N.O=[N+]([O-])[O-].[Co+3]` gave an IC50 of over 500 µM (cell growth or viability, MTT).
The IC50 of `O=C1c2ccc(O)cc2O[C@H](c2ccc(O)c(O)c2)[C@H]1O` is reported as over 400 µM (cell growth or viability, MTT; 72 h).
With `CC(=NNC(N)=S)C(C)=NNC(N)=S` the IC50 was over 20 µM (cell growth or viability, MTT).
